Experimental data gathered from unrelated publications.
Protocols differ between the studies behind these lines. Several values in a cell are separate wells, animals, samples, runs or records.

Structure (SMILES)	target	test	system	conditions	how to read	measurement	value
CCCCCCCCCCCCC/C=C/C=O	Protein canopy homolog 3 (Homo sapiens, UniProt Q9BT09)	competitive isoTOP-ABPP	proteome, soluble, MDA-MB-231	100 µM, 60 min, with: iodoacetamide probe	reference: DMSO over compound-treated, higher = stronger cysteine blockade	isoTOP-ABPP competition ratio	1
O=C(Cc1ccc(OCc2ccccc2)cc1)NC1(C(=O)O)CCN(C(=O)c2ccc(-c3cccc(Cl)c3)cc2)CC1	PDK4 (Homo sapiens, UniProt Q16654)	enzyme activity, inhibitor		10 µM		activity vs control	81%
COC(=O)[C@@]1(Cc2ccccc2)C=C(C(=O)OC(C)(C)C)C(=O)CC1	MAPK14 (Homo sapiens, UniProt Q16539, C119V)	peptide binding, fluorescence polarization		250 µM		fraction bound	0.116
CC(C)Oc1cc(Cl)ccc1CNc1cc(-c2ccccc2)nc2ncnn12	GPR3 (Homo sapiens, UniProt P46089)	cAMP reporter	human cells	1 µM	higher is more cAMP	cAMP luminescence	7200 a.u. and 4160 a.u. and 5930 a.u. and 9810 a.u. and 8830 a.u. and 4550 a.u. and 6870 a.u. and 3630 a.u.
Fc1ccc(Nc2nc(NC3CCCCC3)c3cc(C(F)(F)F)ccc3n2)cc1F	ADRB2 (Homo sapiens, UniProt P07550, I159A)	β-arrestin2 recruitment, antagonist, BRET		mutant I159A	reference: isoprenaline maximal response	maximal inhibition	-0.1%
CC(C)[C@@H]1NC(=O)[C@H](Cc2ccccc2)NC(=O)CSC[C@@H](C(N)=O)NC(=O)[C@H](CCC(=O)O)NC(=O)[C@H](CO)NC(=O)[C@H](Cc2c[nH]c3cccc(Cl)c23)NC(=O)[C@H](C2CCCCC2)NC(=O)[C@H](C(C)C)NC(=O)[C@H](Cc2ccc(O)cc2)NC(=O)[C@H](CC(=O)O)NC(=O)[C@H](Cc2c[nH]c3ccccc23)NC(=O)[C@H](Cc2ccc(N)nc2)NC(=O)[C@H](Cc2c[nH]c3ccc(Cl)cc23)NC(=O)[C@H](CCC(=O)O)NC1=O	Interleukin-1 receptor-like 2 (IL1RL2, Homo sapiens, UniProt Q9HB29)	reporter gene (SEAP), inhibitor, HEK-Blue IL-36R reporter	HEK-Blue IL-36R cells	100 µM, 6 h, with: IL-36β 10 ng/mL		remaining activity	51.6%
O=C(NC1CCCS(=O)(=O)c2ccccc21)c1ccc2nc(O)cnc2c1 (stereo not shown)	WD repeat-containing protein 91 (Homo sapiens, UniProt A4D1P6)	binder, spectral shift		concentration not given		binding	no binding
CCCC1(CC)C(=O)N(c2cccc(CN3CCN(Cc4ccc(Br)cc4)CC3)c2)C1=O	Dipeptidyl peptidase 8 (Homo sapiens, UniProt Q6V1X1)	enzyme activity, inhibitor		5 µM		activity vs control	< 5%
C#CCOC(=O)[C@@]1(C)C=C(C(=O)OC(C)(C)C)C(=O)CC1	MAPK1 (Homo sapiens, UniProt P28482)	enzyme activity, D-SENSOR		14.81 µM, single replicate		normalized kinase activity	1 and 0.99 and 0.985
C[N+]1(C)CCCC1	Chrnd/Chrna1/Chrne (Mus musculus, UniProt P02716+P04756+P20782, G173P/S470W)	binding, single-channel kinetics	cell-attached patch	AChR wild type, P chain side		kon	1.23e+07 M⁻¹ s⁻¹
Clc1ccc(C(Cn2cnc3ccccc32)OCc2ccc3ccccc3c2)c(Cl)c1 (stereo not shown)	ULK1 (Homo sapiens, UniProt O75385)	enzyme activity, inhibitor, ADP detection		0.1 µM		activity vs control	106%
CCCCc1ccc(C(=O)N2c3ccc(F)cc3[C@@H](Nc3ccccc3)C[C@H]2C)cc1	Ecdysone receptor (Aedes albopictus, UniProt Q9U3Y4)	ligand binding, inhibitor	intact cells	with: [3H]ponasterone A	direction not given	pIC50 Z-score	-1.12
O=[N+]([O-])c1cc(Br)cc([N+](=O)[O-])c1NS(=O)(=O)c1ccc(Br)cc1	PYL10, with HAB1 (Arabidopsis thaliana, UniProt Q8H1R0)	antagonist		80 µM, with: ABA 5 µM	higher = more HAB1 activity	HAB1 phosphatase activity	0.109 a.u. and 0.099 a.u. and 0.088 a.u.

A few entries again:
Structure (SMILES)	target	test	system	conditions	how to read	measurement	value
COC(=O)[C@@]1(Cc2ccccc2)C=C(C(=O)OC(C)(C)C)C(=O)CC1	MAPK14 (Homo sapiens, UniProt Q16539, C119V)	peptide binding, fluorescence polarization		250 µM		fraction bound	0.116
